# Measured values collected from several papers.
# Lines come from different studies, so protocols differ. Values joined by “and” are separate records of one study, mostly repeats; a detail may differ. ± marks the error that the study gave.
# ROPGAP3: ROPGAP3 (Arabidopsis thaliana, UniProt Q8GYY5)
# Chain of UniProt Q8GYY5 (whole entry, looked up): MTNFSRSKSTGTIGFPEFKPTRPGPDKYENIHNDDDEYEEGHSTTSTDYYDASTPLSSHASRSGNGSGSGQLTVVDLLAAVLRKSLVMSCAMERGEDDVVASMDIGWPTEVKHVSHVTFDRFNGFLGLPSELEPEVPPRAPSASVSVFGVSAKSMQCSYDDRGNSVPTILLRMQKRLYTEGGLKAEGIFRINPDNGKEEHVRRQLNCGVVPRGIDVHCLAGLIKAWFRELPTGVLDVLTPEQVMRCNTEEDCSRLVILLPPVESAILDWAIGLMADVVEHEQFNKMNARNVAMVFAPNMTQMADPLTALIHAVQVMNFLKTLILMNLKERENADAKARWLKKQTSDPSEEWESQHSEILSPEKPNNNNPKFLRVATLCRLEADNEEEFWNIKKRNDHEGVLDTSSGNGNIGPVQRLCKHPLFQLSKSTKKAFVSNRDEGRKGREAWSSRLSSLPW
# B1: ife-1 (Caenorhabditis elegans, UniProt O45551); chain MTETEQTTAPIYPLKRNWTWWYLNDERNKSWEDRLKKVYTFNTVSEFWALYDAIRPPSGLNALCDYNVFRDDIQPMWEVPENSNGGRWLIVIDKGKTPEMVDAIWLEILMALVGEQFGKDMESICGLVCNVRGKGSKISVWTKDCNDDETNMRIGVVLKEKLMAASKDHSKPLFDVIRYEDHESCQKKTSSVVKAKLSLHSSDAPVAEKSAV
# B2: PIN3 267-386 (Arabidopsis thaliana, UniProt Q9S7Z8); chain ADMYSVQSSRGPTPRPSNFEENCAMASSPRFGYYPGGGAGSYPAPNPEFSSTTTSTANKSVNKNPKDVNTNQQTTLPTGGKSNSHDAKELHMFVWSSNGSPVSDRAGLNVFGGAPDNDQG
# B3: NYV1 (Saccharomyces cerevisiae, UniProt Q12255); chain MKRFNVSYVEVIKNGETISSCFQPFQKNENYGTITSANEQITPVIFHNLIMDMVLPKVVPIKGNKVTKMSMNLIDGFDCFYSTDDHDPKTVYVCFTLVDMPKILPIRILSGLQEYESNATNELLSSHVGQILDSFHEELVEYRNQTLNSSGNGQSSNGNGQNTISDIGDATEDQIKDVIQIMNDNIDKFLERQERVSLLVDKTSQLNSSSNKFRRKAVNIKEIMWWQKVKNITLLTFTIILFVSAAFMFFYLW
# B4: NuoB (Mycolicibacterium smegmatis, UniProt A0QU35); chain MGLEERLPGGILLSTVETVAGYVRKGSLWPATFGLACCAIEMMSTAGPRFDIARFGMERFSATPRQADLMIVAGRVSQKMAPVLRQIYDQMVEPKWVLAMGVCASSGGMFNNYAVVQGVDHVVPVDIYLPGCPPRPEMLLHAILKLHDKIQQMPLGVNREEAIREAEQAALAVPPTIELKGLLR
# B5: GST-KRP3 (Oryza sativa, UniProt Q2R185); chain MGKYLRSSCKQQQQPSSPAAVASVAAAAVSSYSYLTLRSGRRVPAAAAAAGGSACRRRHRRGGRRGCAKNGAGSARACGARSPTSSASSGQRRRCEAVECSHGGGRAELSRSPPLGNSVVVVSGDVVSGERKSLKPNSCSREVAAEHAGEHKHNPAAAAAAGRRPPLSPPEAEIEAFFAAAELAERRRFAEKYNYDIALDRPLQGRYEWEPTVPNFDVAKDVTDM
# B6: BAG4 376-457 (UniProt O95429); pT405; chain TPPSIKKIIHVLEKVQYLEQEVEEFVGKKTDKAYWLLEEMLTKELLELDSVETGGQDSVRQARKEAVCKIQAILEKLEKKGL
# B7: PIN2 167-485 (Arabidopsis thaliana, UniProt Q9LU77); chain ETAGSITSFRVDSDVISLNGREPLQTDAEIGDDGKLHVVVRRSSAASSMISSFNKSHGGGLNSSMITPRASNLTGVEIYSVQSSREPTPRASSFNQTDFYAMFNASKAPSPRHGYTNSYGGAGAGPGGDVYSLQSSKGVTPRTSNFDEEVMKTAKKAGRGGRSMSGELYNNNSVPSYPPPNPMFTGSTSGASGVKKKESGGGGSGGGVGVGGQNKEMNMFVWSSSASPVSEANAKNAMTRGSSTDVSTDPKVSIPPHDNLATKAMQNLIENMSPGRKGHVEMDQDGNNGGKSPYMGKKGSDVEDGGPGPRKQQMPPASV
# B8: rplP (Mycobacterium smegmatis, UniProt A0QSD8); chain MLIPRKVKHRKQHHPEQRGIASGGTSVSFGDYGIQALEHAYITNRQIESARIAINRHIKRGGKVWINIFPDRPLTKKPAETRMGSGKGSPEWWVANVKPGRVLFELSYPDEKTARDALTRAIHKLPIKARIVTREEQF
# B9: MSMEG_2064 (Mycolicibacterium smegmatis, UniProt A0QU37); chain MAGSAPLRILVYSDNPRTREQVRLALGKRIHPELPEIEYVDVATAPMAISQMDAGGFDLAILDGEATPAGGMGVAKQVKDEIDDCPPILVLTGRADDAWLAKWSRAEAAVPHPIDPIRLSDAVVSLLRAPAQ
# B10: mutL 460-658 K568A (Neisseria gonorrhoeae, UniProt Q5F8M6); chain SQSELPPLGFAIAQLLGIYILAQAEDSLLLIDMHAAAERVNYEKMKRQRQENGNLQSQHLLIPVTFAASHEECAALADHAETLAGFGLELSDMGGNTLAVRAAPVMLGASDVVSLARDVLGELAQVGSSQTIASHENRILATMSCHGSIRAGRRLTLPEMNALLRDMENTPRSNQCNHGRPTWVKLTLKELDTLFLRGQ
# B11: Cbx1 (Mus musculus, UniProt P83917); chain MGKKQNKKKVEEVLEEEEEEYVVEKVLDRRVVKGKVEYLLKWKGFSDEDNTWEPEENLDCPDLIAEFLQSQKTAHETDKSEGGKRKADSDSEDKGEESKPKKKKEESEKPRGFARGLEPERIIGATDSSGELMFLMKWKNSDEADLVPAKEANVKCPQVVISFYEERLTWHSYPSEDDDKKDDKN
# B12: CENPW K29A/K30A/R34A/E36A/T60V (Homo sapiens, UniProt Q5EE01); sequence looked up; chain MALSTIVSQRKQIKRKAPRGFLKRVFKRAAPQLALAKSGDLLVHLNCLLFVHRLAEESRVNACASKCRVINKEHVLAAAKVILKKSRG
# B13: ATG32 1-381 (Saccharomyces cerevisiae, UniProt P40458); chain MVLEYQQREGKGSSSKSMPPDSSSTTIHTCSEAQTGEDKGLLDPHLSVLELLSKTGHSPSPMGQNLVTSIDISGNHNVNDSISGSWQAIQPLDLGASFIPERCSSQTTNGSILSSSDTSEEEQELLQAPAADIINIIKQGQEGANVVSPSHPFKQLQKIISLPLPGKEKTPFNEQDDDGDEDEAFEEDSVTITKSLTSSTNSFVMPKLSLTQKNPVFRLLILGRTGSSFYQSIPKEYQSLFELPKYHDSATFPQYTGIVIIFQELREMVSLLNRIVQYSQGKPVIPICQPGQVIQVKNVLKSFLRNKLVKLLFPPVVVTNKRDLKKMFQRLQDLSLEYGEDVNEEDNDDEAIHTKSRSYCRNKKAENSKKKSPKSNKKPKR
# Chain of UniProt O43614 (whole entry, unmodified, looked up): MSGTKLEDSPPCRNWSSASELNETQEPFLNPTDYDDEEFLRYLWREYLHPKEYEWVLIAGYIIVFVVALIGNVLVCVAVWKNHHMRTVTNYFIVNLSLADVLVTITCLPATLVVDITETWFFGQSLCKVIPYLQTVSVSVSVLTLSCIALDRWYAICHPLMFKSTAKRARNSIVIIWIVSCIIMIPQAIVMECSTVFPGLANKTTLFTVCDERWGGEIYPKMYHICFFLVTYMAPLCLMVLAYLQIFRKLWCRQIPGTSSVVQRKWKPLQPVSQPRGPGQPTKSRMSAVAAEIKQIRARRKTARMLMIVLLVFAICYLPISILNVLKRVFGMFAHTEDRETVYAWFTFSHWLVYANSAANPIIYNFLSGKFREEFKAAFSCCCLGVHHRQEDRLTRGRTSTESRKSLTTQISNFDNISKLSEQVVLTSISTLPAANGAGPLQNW
# Chain of UniProt Q12241 (whole entry, looked up): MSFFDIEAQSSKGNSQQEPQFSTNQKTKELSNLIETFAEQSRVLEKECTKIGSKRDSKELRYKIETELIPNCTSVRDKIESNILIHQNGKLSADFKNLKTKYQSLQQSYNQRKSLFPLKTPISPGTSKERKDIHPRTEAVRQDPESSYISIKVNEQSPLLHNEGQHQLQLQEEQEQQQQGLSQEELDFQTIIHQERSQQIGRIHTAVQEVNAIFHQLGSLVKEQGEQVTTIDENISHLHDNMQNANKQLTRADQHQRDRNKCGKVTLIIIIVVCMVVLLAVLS
# Chain of UniProt A0QU28 (whole entry, looked up): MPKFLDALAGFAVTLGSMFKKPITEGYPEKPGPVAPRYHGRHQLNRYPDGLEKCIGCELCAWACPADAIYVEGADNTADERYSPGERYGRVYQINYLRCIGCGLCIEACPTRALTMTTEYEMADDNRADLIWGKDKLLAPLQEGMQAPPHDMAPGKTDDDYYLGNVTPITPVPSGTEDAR
# Chain of UniProt P63151 (whole entry, looked up): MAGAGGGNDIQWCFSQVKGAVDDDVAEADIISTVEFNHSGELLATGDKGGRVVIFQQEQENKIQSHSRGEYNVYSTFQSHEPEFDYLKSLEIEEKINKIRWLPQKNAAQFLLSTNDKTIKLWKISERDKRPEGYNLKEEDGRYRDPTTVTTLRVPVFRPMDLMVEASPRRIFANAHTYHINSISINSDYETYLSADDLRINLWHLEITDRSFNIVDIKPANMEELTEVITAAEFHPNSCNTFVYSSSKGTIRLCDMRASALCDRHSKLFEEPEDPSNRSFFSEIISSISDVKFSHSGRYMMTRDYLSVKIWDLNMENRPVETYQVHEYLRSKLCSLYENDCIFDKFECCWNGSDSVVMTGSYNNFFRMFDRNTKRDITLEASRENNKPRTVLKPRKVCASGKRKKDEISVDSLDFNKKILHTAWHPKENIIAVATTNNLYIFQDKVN
# Chain of UniProt A0QU29 (whole entry, looked up): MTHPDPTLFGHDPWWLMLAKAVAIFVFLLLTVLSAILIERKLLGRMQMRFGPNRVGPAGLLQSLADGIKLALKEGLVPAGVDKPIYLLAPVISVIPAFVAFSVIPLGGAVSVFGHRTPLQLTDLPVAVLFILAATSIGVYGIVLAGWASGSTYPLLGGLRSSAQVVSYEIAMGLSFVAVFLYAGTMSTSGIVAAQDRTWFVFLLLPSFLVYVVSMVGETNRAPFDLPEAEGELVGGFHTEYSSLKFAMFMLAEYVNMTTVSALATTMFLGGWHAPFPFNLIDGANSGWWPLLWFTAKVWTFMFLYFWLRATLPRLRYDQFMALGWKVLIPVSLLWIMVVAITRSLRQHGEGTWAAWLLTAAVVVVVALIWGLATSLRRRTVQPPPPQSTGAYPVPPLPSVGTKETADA
# Chain of UniProt P19438 (whole entry, looked up): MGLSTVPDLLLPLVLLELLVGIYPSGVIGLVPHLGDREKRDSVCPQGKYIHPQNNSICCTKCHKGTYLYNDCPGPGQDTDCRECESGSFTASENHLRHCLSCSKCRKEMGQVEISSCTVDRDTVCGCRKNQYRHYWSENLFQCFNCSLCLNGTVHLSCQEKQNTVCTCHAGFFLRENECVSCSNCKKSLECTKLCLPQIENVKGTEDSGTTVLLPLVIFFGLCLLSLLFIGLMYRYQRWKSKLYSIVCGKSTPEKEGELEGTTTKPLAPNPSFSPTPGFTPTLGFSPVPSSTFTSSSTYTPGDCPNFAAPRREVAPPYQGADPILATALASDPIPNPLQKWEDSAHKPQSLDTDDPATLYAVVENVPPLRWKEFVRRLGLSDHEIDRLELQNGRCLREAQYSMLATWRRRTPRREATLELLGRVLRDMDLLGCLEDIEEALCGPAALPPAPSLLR
# Chain of UniProt P41811 (whole entry, looked up): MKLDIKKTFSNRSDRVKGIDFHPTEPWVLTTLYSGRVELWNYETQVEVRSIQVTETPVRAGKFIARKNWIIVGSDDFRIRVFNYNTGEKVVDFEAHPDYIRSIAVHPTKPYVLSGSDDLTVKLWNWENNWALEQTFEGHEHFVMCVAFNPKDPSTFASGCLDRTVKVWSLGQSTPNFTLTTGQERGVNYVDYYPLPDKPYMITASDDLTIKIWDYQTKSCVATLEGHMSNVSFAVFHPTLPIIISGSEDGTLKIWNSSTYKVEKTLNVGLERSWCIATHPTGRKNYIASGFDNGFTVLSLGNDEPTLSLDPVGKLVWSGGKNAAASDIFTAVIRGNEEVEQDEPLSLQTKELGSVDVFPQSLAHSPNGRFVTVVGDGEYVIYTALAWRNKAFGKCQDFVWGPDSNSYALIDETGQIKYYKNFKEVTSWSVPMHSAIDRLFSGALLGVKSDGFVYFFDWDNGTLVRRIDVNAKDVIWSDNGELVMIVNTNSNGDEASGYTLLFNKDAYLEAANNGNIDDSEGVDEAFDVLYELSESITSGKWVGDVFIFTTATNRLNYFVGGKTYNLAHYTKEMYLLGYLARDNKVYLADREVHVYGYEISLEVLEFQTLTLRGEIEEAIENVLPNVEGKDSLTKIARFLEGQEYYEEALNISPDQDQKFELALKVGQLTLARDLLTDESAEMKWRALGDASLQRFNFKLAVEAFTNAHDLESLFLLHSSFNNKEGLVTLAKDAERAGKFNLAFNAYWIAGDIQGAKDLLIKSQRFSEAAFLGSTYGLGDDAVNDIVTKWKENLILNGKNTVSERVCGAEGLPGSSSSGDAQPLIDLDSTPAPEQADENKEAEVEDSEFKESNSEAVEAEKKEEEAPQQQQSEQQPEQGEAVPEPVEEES
# Chain of UniProt O22469 (whole entry, looked up): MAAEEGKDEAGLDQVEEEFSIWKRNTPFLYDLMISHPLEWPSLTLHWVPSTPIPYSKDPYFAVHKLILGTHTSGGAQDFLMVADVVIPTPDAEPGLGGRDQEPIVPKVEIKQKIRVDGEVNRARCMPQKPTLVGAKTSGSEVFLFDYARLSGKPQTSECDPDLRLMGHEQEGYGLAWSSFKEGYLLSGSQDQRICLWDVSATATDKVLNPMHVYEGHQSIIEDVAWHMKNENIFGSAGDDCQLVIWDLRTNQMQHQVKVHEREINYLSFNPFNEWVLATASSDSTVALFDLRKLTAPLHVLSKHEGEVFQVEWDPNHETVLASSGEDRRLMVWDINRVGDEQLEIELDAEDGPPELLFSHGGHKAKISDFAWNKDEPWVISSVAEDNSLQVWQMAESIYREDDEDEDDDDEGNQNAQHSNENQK
# Chain of UniProt P11387 (whole entry, looked up): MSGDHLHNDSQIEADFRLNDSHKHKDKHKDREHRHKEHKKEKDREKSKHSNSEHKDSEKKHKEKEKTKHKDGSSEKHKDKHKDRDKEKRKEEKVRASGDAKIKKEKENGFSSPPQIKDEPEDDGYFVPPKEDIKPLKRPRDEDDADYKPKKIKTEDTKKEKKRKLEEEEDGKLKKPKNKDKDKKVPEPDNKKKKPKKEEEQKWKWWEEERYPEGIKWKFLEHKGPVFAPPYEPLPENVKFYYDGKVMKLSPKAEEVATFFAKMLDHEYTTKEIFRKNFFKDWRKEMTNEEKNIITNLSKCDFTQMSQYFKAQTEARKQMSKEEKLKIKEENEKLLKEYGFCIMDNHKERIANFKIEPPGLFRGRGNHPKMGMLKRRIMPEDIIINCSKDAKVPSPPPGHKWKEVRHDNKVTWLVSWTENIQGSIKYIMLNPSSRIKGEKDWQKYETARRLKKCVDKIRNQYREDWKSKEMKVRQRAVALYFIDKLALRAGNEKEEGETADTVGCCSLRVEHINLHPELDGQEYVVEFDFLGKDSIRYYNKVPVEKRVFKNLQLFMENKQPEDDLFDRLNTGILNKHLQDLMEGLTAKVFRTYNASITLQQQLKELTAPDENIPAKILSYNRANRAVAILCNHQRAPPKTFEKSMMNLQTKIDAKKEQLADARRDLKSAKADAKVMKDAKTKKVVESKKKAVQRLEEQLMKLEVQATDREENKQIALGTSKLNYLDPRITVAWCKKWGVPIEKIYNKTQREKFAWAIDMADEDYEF
# Chain of UniProt P05205 (whole entry, looked up): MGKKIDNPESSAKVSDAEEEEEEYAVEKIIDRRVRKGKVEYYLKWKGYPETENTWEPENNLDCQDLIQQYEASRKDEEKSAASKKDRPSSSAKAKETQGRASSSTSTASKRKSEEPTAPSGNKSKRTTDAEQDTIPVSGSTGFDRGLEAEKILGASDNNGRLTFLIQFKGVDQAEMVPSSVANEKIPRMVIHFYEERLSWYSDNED
Molecule,target or system,test,test system,conditions,scale,quantity,value
B1 (ife-1),"pgl-1 R123E (Caenorhabditis elegans, UniProt Q9TZQ3)",pull-down,,,,binding,binds
hexaarginine,PorA peptide pore,"peptide binding, planar bilayer single-channel recording",,"0.5 µM, pH 7.4, +25 mV, trans side, 150 mM KCl",,kon,1.53e+07 ± 2e+06 M⁻¹ s⁻¹
aspterric acid,,hypocotyl length,Arabidopsis thaliana Col-0 seeds,"100 µg/mL, seed germination",relative to: water control,inhibition,99.6%
B2 (PIN3 267-386),ROPGAP3,pull-down,,in vitro,,binding,binds
orexin-B,"HCRTR2 (Homo sapiens, UniProt O43614, del254-292/I293E/K294R/L160H/M161K/Q254E)","sensor fluorescence, fluorescence imaging",HEK293T,"10 µM, with: OXB 10 µM",relative to: baseline,maximal ΔF/F0,774% and 978% and 855% and 786% and 825% and 987% and 672%
heparin sodium,,,healthy Chinese adult volunteers,"continuous intravenous infusion, 8 IU/kg/h, 5 days",,subjects with abnormal liver function,75%
insulin human,,measured: GRIA1 mRNA,"uninfected mouse, brain","i.p., dose not given",relative to: PBS,fold change,0.967
B3 (NYV1),"VAM3 (Saccharomyces cerevisiae, UniProt Q12241)",co-IP,,,,binding,binds
B4 (NuoB),"NuoH (Mycolicibacterium smegmatis, UniProt A0QU29)",cryo-EM,,,,binding,binds
"VAM3 (Saccharomyces cerevisiae, UniProt Q12241)","VAM7 (Saccharomyces cerevisiae, UniProt P32912)",co-IP,,,,binding,binds
B5 (GST-KRP3),"MPK3 (Oryza sativa, UniProt Q10N20)",pull-down,,,,binding,binds
KTSHDD (S residues 1348-1353 (HCoV-OC43)),"SEC27 1-301 (Saccharomyces cerevisiae, UniProt P41811)",crystal structure,peptide,,,binding,binds
"HAG2 (Arabidopsis thaliana, UniProt Q9FJT8)","Histone H3.1 (Homo sapiens, UniProt P68431)",pull-down,,,,binding,binds
B6 (BAG4 376-457),"TNFRSF1A 356-441 (Homo sapiens, UniProt P19438)",fluorescence polarisation,,,,binding,binds
"DNIKHVPGGGSVQIVYKPV (MAPT 295-313 (Homo sapiens, UniProt P10636-8))","MAPT 255-441 P301L (Homo sapiens, UniProt P10636-8)","ThT fluorescence, TEM",peptide,,,binding,binds
DPDPE,,RP-HPLC,HALO Peptide ES-C18 column,"25 µM, formic acid/methanol, 10 min gradient",,retention time,8.32 min
"large T antigen (SV40, UniProt P03070)","TOP1 (Homo sapiens, UniProt P11387)",ELISA,,,,binding,binds
"MSI3 (Arabidopsis thaliana, UniProt O22469)","HAG2 (Arabidopsis thaliana, UniProt Q9FJT8)",pull-down,,,,binding,binds
B7 (PIN2 167-485),ROPGAP3,pull-down,,4 °C,,binding,binds
glucagon,,ELISA,"human, type 1 diabetes, femoral artery plasma","intravenous infusion, 0.12 ng/kg/min, 160 to 180 min",,plasma concentration,0.0496 ± 0.0043 ng/mL
"KLLITIHDRKEFAKFEEERARAKWDTANNPLYKEATSTFTNITYRGT (ITGB3 742-788 (Homo sapiens, UniProt P05106))",TLN1 head 1-405 K306Q/E269A/Y270A/del139-168 (UniProt P26039),pull-down,,GST-β3 tail,,binding,binds
B8 (rplP),"hflX (Mycobacterium smegmatis, UniProt A0QVY1)",cryo-EM,,,,binding,binds
B9 (MSMEG_2064),"nuoI (Mycolicibacterium smegmatis, UniProt A0QU28)",cryo-EM,,,,binding,binds
Polymyxin B,,,mouse,"intraperitoneal, 40 mg/kg single dose, day 3",,survival,0%
nonaarginine,PorA peptide pore,"peptide binding, planar bilayer single-channel recording",,"pH 7.4, -30 mV, cis side, 150 mM KCl",,Kd,2780 ± 300 nM
colistin,Aspergillus fumigatus,,solid minimal medium,"20 µM, 4 d",relative to: untreated control,radial growth ratio,0.949 and 0.929 and 0.919
B10 (mutL 460-658 K568A),"dnaN beta clamp 1-367 (Neisseria gonorrhoeae, UniProt A0ACH0F8P7)",SEC,,,,binding,binds
"NuoM (Mycolicibacterium smegmatis, UniProt A0QU24)","nuoL (Mycolicibacterium smegmatis, UniProt A0QU25)",cryo-EM,,,,binding,binds
HVLVMSATRR,,,"peptide, C57BL/6J mice, male, blood","subcutaneous osmotic pump, 3 mg/kg/day peptide basis, 8 weeks",,mean cell volume,46.2 fL and 45.9 fL and 47.3 fL and 45.6 fL
"MPQLNGGGGDDLGANDELISFKDEGEQEEKSSENSSAERDLADVKSSLVNESE (TCF7L2 1-53 (Homo sapiens, UniProt Q9NQB0))","CTNNB1 E462K (Homo sapiens, UniProt P35222)",BLI,,,,binding,binds
B11 (Cbx1),"HP1a (Drosophila melanogaster, UniProt P05205)",cross-linking,,,,binding,binds
B12 (CENPW K29A/K30A/R34A/E36A/T60V),"CENPT (Homo sapiens, UniProt Q96BT3)",pull-down,,,,binding,binds
LQLQKGSDTEAQCE (INTS3 584-597; pS590/pT592),"NBN 1-334 K160A (Homo sapiens, UniProt O60934)",ITC,peptide,,,binding,binds
"PPP2R2A (Homo sapiens, UniProt P63151)","ARPP19 R52A (Homo sapiens, UniProt P56211)",co-IP,HeLa,,"relative to: wild-type ARPP19, higher = more binding",binding,< 25 % vs wt
B13 (ATG32 1-381),"Atg11, Alexa Fluor 594 label (Saccharomyces cerevisiae, UniProt Q12527)",fluorescence microscopy,liposomes,with: DGS-Ni-NTA 5 mol%,,binding,binds

# For quick reference, copied from above:
Molecule,target or system,test,test system,conditions,scale,quantity,value
"HAG2 (Arabidopsis thaliana, UniProt Q9FJT8)","Histone H3.1 (Homo sapiens, UniProt P68431)",pull-down,,,,binding,binds
B6 (BAG4 376-457),"TNFRSF1A 356-441 (Homo sapiens, UniProt P19438)",fluorescence polarisation,,,,binding,binds
"DNIKHVPGGGSVQIVYKPV (MAPT 295-313 (Homo sapiens, UniProt P10636-8))","MAPT 255-441 P301L (Homo sapiens, UniProt P10636-8)","ThT fluorescence, TEM",peptide,,,binding,binds
DPDPE,,RP-HPLC,HALO Peptide ES-C18 column,"25 µM, formic acid/methanol, 10 min gradient",,retention time,8.32 min
